Results from different studies.
Each numbered part is a random draw from the data of one study; scales do not carry over between parts. Substitutions count along the parent as printed.

Set 1 — target: CCNB1, cyclin fold, Cln2 fusion (human); technique: yeast growth competition, sequencing; medium: yeast; notes: strong parent motif; baseline: not given; reading: higher = stronger binding
Starting sequence: viral docking peptide; KGVKRKLFAEDSS; partner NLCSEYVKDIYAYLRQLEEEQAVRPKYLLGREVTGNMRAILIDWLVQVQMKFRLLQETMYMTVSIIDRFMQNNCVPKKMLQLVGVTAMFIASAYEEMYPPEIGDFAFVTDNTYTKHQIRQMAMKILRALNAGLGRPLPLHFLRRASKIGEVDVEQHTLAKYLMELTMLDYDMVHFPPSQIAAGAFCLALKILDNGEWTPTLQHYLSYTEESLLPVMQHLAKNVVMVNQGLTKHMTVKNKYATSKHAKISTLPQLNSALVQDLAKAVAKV
| Substitution | normalised enrichment score |
| --- | --- |
| A9N | 1.77 |
| E10W | 0.58 |
| V3G | 0.488 |
| G2C | 2.54 |
| S12V | 2.65 |
| A9F | 4.3 |

Set 2 — technique: competition protein-binding microarray; form: double-stranded DNA, one strand shown; medium: in vitro; concentration: 2 µM; added: Cbf1 competitor, 0.05 µM; reading: higher = stronger binding; all sequences stand within: … GTCTTGATTCGCTTGACGCTGCTG
Target: Phosphate system positive regulatory protein PHO4, full length, GST-tagged (PHO4, Saccharomyces cerevisiae, UniProt P07270, residues 1-312)
Notes: whole 60-bp probe, lowest competitor level
Target sequence (chain): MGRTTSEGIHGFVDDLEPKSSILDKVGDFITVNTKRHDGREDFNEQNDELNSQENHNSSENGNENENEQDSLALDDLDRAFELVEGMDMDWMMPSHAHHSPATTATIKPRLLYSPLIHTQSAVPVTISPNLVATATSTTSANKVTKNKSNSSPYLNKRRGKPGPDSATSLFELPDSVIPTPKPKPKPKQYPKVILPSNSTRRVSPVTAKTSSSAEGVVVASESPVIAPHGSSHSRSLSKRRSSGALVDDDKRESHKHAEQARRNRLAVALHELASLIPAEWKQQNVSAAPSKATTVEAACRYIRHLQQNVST
| Strand | fluorescence intensity [a.u.] |
| --- | --- |
| GCAAACTTGTTATTGCACGTTAAGTTTTGGGCTCAA | 6110 |
| CTTTCCCGATCTTGATGCGTGGGTGTAGCACATTTG | 8620 |
| CATACCCAACCTTGCGGCGTGGGTGAAGATATTTGT | 9160 |
| CAAAGCCCTATTCGCGTCGTGACGGACTGAATGTCA | 4530 |
| ATAGTTTGAACCGGTCCCGTGTGTTAGTGGTAGGAC | 5880 |
| AGCTAAGCGTCTACCCACGTAACAAACAATCTTGCC | 6720 |
| CGCTGGAAAACCGCCCACGTGGGAAGAAGCCCTGGC | 17900 |
| CGTCCTAGCGATTGATGAGTGGGTGCCATGAGGAAG | 6110 |

Set 3 — read-out: peptide-MHC binding; form: peptide; concentration: concentration not given
Target: HLA class I histocompatibility antigen, A alpha chain, allele A*80:01 (Homo sapiens, UniProt P04439)
| Molecule | binding |
| --- | --- |
| YKSRCYVGL | inactive |
| RAMDVYCHR | inactive |
| SMNYPNSYK | inactive |
| AGGWVLWKV | inactive |
| SLLFREVWK | inactive |
| KAIIDTAQF | inactive |
| LMTHTWHAK | inactive |

Set 4 — target: UBE2D3 UBC core domain (UniProt P61077); technique: yeast two-hybrid; medium: yeast; notes: mostly zero background; baseline: not given; reading: higher = stronger interaction
B1: RNF19A RING domain (UniProt Q9NV58); chain ISKQIGDFIECPLCLLRHSKDRFPDIMTCHHRSCVDCLRQYLRIEISESRVNISCPECTERFNPHDIR
B2: RFWD3 RING domain (UniProt Q6PCD5); chain ASMDEEEGDTCTICLEQWTNAGDHRLSALRCGHLFGYRCISTWLKGQVRKCPQCNKKARHSDIVV
B3: RNF121 RING domain (UniProt Q9H920); chain MPTKHLSDSVCAVCGQQIFVDVSEEGIIENTYRLSCNHVFHEFCIRGWCIVGKKQTCPYCKEKVDLKRMFS
B4: SH3RF1 RING domain (UniProt Q7Z6J0); chain DESALLDLLECPVCLERLDASAKVLPCQHTFCKRCLLGIVGSRNELRCPECRTLVGSGVEEL
B5: DZIP3 RING domain (UniProt Q86Y13); chain PDEEEEEEEPCVICHENLSPENLSVLPCAHKFHAQCIRPWLMQQGTCPTCRLHVLLPEEFP
Target sequence (chain): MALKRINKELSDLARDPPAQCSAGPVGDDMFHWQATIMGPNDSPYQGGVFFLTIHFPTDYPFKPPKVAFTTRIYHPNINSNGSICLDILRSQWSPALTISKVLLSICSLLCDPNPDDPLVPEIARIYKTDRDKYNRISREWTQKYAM
| Molecule | lacZ reporter activity |
| --- | --- |
| B1 (RNF19A RING domain) | 0 |
| B2 (RFWD3 RING domain) | 9300 |
| YQNEVDDDLVCHICLQPLLQPLDTPCGHTFCYKCLRNFLQEKDFCPLDRKRLHFKLCKK (LNX2 RING domain (UniProt Q8N448)) | 0 |
| B3 (RNF121 RING domain) | 0 |
| AVPSGLEENLCKICMDSPIDCVLLECGHMVTCTKCGKRMNECPICRQYVIRAVHVF (RFFL RING domain (UniProt Q8WZ73)) | 0 |
| PEDRESLKSACVVCLSSFKSCVFLECGHVCSCTECYRALPEPKKCPICRQAITRVIPLY (MUL1 RING domain (UniProt Q969V5)) | 12500 |
| B4 (SH3RF1 RING domain) | 0 |
| B5 (DZIP3 RING domain) | 0 |
